# Assay results pooled from the literature.
# Each numbered part is a random draw from the data of one study; scales do not carry over between parts. Substitutions count along the parent as printed.

# Study 1
# Target: Interferon regulatory factor 5, full length, phosphomimetic (IRF5, Homo sapiens, UniProt Q13568-2, residues 1-514, S451D/S453D/S456D/S462D)
# Method: protein-binding microarray
# Form: double-stranded DNA, one strand shown
# Sample: in vitro
# Concentration: 940 nM top
# Setting: 60-bp whole probe
# Together with: salmon DNA 0.4 mg/ml
# Baseline: random background probes
# Reading: higher = stronger binding
# Constant ends, left off below: GCCTAGCAC … GTCTTGATTCGCTTGACGCTGCTG
Oligonucleotide,fitted relative affinity [z-score]
GCCGATATCGGGTATCGAGACGTGCTA,1.92
TTAGGGTTCCTACTGCTTTAGTGCTAG,0.0283
GACGGTTCACTTTTCCTGACGTGCTAG,0.454
GACGGTTTCGGGTATCGGTACGTGCTA,9.52
TTTGGTTTCGACTTTCGGTTAGTGCTA,10.8
TTAGATTTCAGACTGTATTAGTGCTAG,0.113
TTACGTATCGACTATCGGTTAGTGCTA,4.13
TGACAGAGTGAGGTTTGGGCGTGCTAG,-0.598
GACGGACTGGGTATTGGGACGTGCTAG,-0.676
TTAGATCTCAGTATCGATAAGTGCTAG,4.22
GACGAACTGGGGGTTCGAGACGTGCTA,0.298
CATTTTCTCTGTTCTAGAAGGTGCTAG,2.43
AGCACTTTGGCATGTCTTGACGTGCTA,-0.713
TTAGATTTCAGTCTAGATTAGTGCTAG,0.645

# Study 2
# Target: RNA binding protein fox-1 homolog 2, RRM domain, GST-SBP tag (RBFOX2, Homo sapiens, UniProt O43251-10, residues 100-194)
# Method: RNA Bind-n-Seq
# Form: RNA
# Sample: in vitro
# Concentration: 365 nM
# Setting: natural RNA segment, single round, ends assumed
# Baseline: no-protein control
# Reading: higher = stronger binding
# Constant ends, left off below: GGGAGUUCUACAGUCCGACGAUC … UGGAAUUCUCGGGUGCCAA
# Residues (chain): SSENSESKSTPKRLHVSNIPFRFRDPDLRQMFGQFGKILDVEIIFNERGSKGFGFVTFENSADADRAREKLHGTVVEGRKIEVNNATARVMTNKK
Oligonucleotide,RBNS enrichment (R)
GGAAACAGUACUGAGGGCAAAGUUUACAGAUGUUUUUGAUUCUGGCAUUUUGUCCAGAACAGCUUGUAGCAGCUAUAGAUUCCCCCUUGGCCCCAAGCCUGGGACUUGAG,0.755
CCAGCGUUGUCUCACUCUGAUCCCUACCCUGAGCCUGCUGAACUGCCCUCAGAGUGCUCAUAUGGGGAGGGGGAUAUCUACUGUGGCUUCCAAAAGUCCCCACUAGUUGG,0.358
ACGGCCUAGGUGGACAGAUGGACGCCGCUGCCUAGGUGGACAGACGGAUGCCUGCCACCGCCGGGGCAGGGCCAGAUGCCGAUGCUGGGUGUCCAGACUCAGAAGGCUUG,0.345
AACCUAAAAGCUCAGAUGCACUUACAGUCUUGUCUGUGGCCUUUGUAUUGUUAUUGGCUGUAAACGUCUGUCUGGACCGAAUAAAGAUUCAUUCACGUGGCCUCUGCUCC,0.468
CACGGCUUUGCCCUGAUCUGUUCUGCAGGGCUAGGAGUGAGCCUGCCACUAACCCCUCUCCACCACUUGCUCACUCUUGGCCUUGGCCUUGGCCUUUAGGUCCCUGGUGG,0.235
CCCUACCGUGGUGGAUUCCCAGCUGGCAGAUGGCCAAGCUCAGGGCCACUGUGAUCUUGGCAGCCCUCCUGUUUAAGGGGCUGCCACCCUCCCUUACAGGGUGGUGUAUA,0.288
CUGUGUUCUUGUUUUGUUCAUGGUGUUUCUAAGCGUUUUGCUGAAGCUGCUCUCAGGCACCCCCUUCUUCAUUGCUCUCUCCAGAAAGGGUUGCUAGCCUUAACUUCAGC,0.649
AGCUGAACUGGGAACCCUACAGCCUAGUGAUUCUUCUACUUGCUCGCUAUAGCUUUCUGUUGGCAAAUUUUCUCAAAAGCACUCUCUUUAAUCAGAUUAACUUCUUAAAC,0.962

# Study 3
# Organism: Saccharomyces cerevisiae
# Effect on: binding
# Method: competitive growth deep sequencing
# Form: peptide
# Strain: cyclin D2-Cln2 fusion strain
# Concentration: concentration not given
# Setting: peptide tiling library
# Reading: direction not given
Molecule,growth enrichment score
ASVLSKPIFCFVKD,-0.295
SNFFDVIKQLFSDEKN,-2.97
IFNKPECGRVQRAIFQ,-1.75
TSSAQRRLEIPSGGAD,-1.14
DWDTVERQEEEAPSWD,0.76
HPESPPRKRLKSKGSD,4.24

# Study 4
# Target: ABI1, truncated, D143A, DHFR fusion (Arabidopsis thaliana)
# Method: DHFR PCA, deep sequencing
# Sample: yeast
# Setting: methotrexate growth selection, single substitutions
# Together with: (+)-ABA 17 µM
# Baseline: wild-type fitted maximum
# Reading: higher = stronger binding
# Parent: PYL1, truncated, DHFR fusion (Arabidopsis thaliana); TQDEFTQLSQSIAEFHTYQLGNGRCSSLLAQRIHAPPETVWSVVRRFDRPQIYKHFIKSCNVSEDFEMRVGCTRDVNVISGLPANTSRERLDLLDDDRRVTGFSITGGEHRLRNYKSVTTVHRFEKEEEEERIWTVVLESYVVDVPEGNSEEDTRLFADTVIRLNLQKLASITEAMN; partner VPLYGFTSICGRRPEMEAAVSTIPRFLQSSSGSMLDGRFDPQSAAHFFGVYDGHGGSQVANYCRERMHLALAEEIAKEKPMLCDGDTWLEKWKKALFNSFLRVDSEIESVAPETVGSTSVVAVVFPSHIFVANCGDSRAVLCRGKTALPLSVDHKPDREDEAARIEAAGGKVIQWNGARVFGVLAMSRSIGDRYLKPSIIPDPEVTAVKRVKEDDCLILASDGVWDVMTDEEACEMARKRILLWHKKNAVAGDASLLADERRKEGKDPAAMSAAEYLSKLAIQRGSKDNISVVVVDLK
Change,relative binding score
I33C,61.9%
L164M,84.7%
K54C,-20.3%
N77H,97.1%
G71H,12.1%
T120N,9.52%
Q167C,75.6%
D95S,40.3%
A30R,79.1%
N149A,46.5%
T160I,42.5%
E127R,85.2%
R111N,41.1%

# Some of these lines once more (study 4):
Change,relative binding score
K54C,-20.3%
N77H,97.1%
G71H,12.1%
